# Measurements collected from several papers.
# Each line is one published result; not all experiments were run side by side. Values joined by “and” are separate records of one study, mostly repeats; a detail may differ. ± marks the error that the study gave.
# CYP1A2: Cytochrome P450 1A2 (CYP1A2, Homo sapiens, UniProt P05177)
# UniProt Q96FL8, sequence (whole entry, looked up): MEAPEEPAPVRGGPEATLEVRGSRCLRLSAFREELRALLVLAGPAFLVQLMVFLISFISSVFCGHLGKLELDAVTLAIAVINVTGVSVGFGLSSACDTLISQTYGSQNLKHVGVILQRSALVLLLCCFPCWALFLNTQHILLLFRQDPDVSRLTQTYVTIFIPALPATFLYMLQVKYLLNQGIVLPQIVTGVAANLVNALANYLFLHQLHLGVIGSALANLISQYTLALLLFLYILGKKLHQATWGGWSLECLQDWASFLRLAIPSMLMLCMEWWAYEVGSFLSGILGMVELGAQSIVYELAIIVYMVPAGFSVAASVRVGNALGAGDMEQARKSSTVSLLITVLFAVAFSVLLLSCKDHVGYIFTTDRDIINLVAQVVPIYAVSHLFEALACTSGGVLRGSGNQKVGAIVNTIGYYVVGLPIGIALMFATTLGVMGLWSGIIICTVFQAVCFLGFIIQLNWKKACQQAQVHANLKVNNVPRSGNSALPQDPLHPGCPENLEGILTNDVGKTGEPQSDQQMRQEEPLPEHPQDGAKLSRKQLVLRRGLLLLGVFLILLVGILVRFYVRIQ
SMILES,tested on,assay,system,conditions,endpoint,result
Cc1sc2c(c1C)C(c1ccc(Cl)cc1)=N[C@@H](CC(=O)OC(C)(C)C)c1nnc(C)n1-2,,,"CD1 mouse, male","intravenous, 5 mg/kg",AUC(0-inf),2130 ng·h/mL
O=C(/C=C/c1cccc(C(F)(F)F)c1)c1ccc(NS(=O)(=O)c2ccc(C(F)(F)F)cc2)cc1,Danio rerio,,"wild type, embryos","immersion, up to 120 hpf, exposure from 5 hpf",LC50,12.9 µM
CC(=O)NCCCC[C@@H]1NC(=O)[C@H](Cc2c[nH]c3c(C)cccc23)NC(=O)[C@H]([C@@H](C)O)NC(=O)[C@H](CC(N)=O)NC(=O)[C@@H](NC(C)=O)C(C)(C)SSC(C)(C)[C@@H](C(=O)N[C@@H](Cc2ccc(OCCN)cc2)C(=O)N[C@@H](Cc2ccc3ccccc3c2)C(=O)NC2(C(=O)N[C@@H](CCC(=O)O)C(=O)N[C@@H](CC(N)=O)C(=O)N[C@@H](Cc3cccnc3)C(=O)N(C)CC(N)=O)CCOCC2)NC1=O,"Multidrug and toxin extrusion protein 1 (SLC47A1, Homo sapiens, UniProt Q96FL8)",substrate,MDCK-II overexpressing transporter,"5 µM, 30 min, added: 100 µM pyrimethamine",uptake rate,0.164 ± 0.004 pmol/mg/min
Cc1cc(-c2ccc3ccccc3c2)nnc1NCCN1CCN(C)CC1,CYP1A2,substrate,recombinant enzyme,100 nM,half-life,> 60 min
Oc1ccc2c3c1OC1C(O)C=CC4C(C2)N(CC2CCC2)CCC341 (centres unmarked),,,,phenolate site,log k protonation constant,9.14
CC[C@H](C)[C@H](NC(=O)[C@H](CCCCN)NC(=O)CNC(=O)[C@H](CC(C)C)NC(=O)[C@H](Cc1ccccc1)NC(=O)[C@H](CCCCN)NC(=O)[C@H](CO)NC(=O)[C@H](Cc1ccccc1)NC(=O)[C@H](Cc1c[nH]c2ccccc12)NC(=O)[C@H](CCC(N)=O)NC(=O)[C@@H](NC(=O)[C@H](Cc1ccccc1)NC(=O)CCCCCNC(=O)CN1CCN(CC(=O)O)CCN(CC(=O)O)CCN(CC(=O)O)CC1)C(C)C)C(=O)N[C@@H](CCC(=O)O)C(=O)N1CCC[C@H]1C(=O)N[C@@H](CC(=O)O)C(=O)N[C@H](C(=O)N[C@@H](CO)C(=O)N[C@@H](CCC(N)=O)C(=O)N[C@H](C(=O)N[C@@H](CCC(N)=O)C(=O)N[C@@H](CC(=O)O)C(=O)N1CCC[C@H]1C(=O)N[C@@H](CC(N)=O)C(=O)N[C@@H](CC(=O)O)C(=O)N[C@@H](CCC(N)=O)C(=O)N[C@@H](Cc1ccc(O)cc1)C(=O)N[C@@H](CCC(=O)O)C(=O)N1CCC[C@H]1C(=O)N[C@@H](Cc1ccccc1)C(=O)O)C(C)C)C(C)C [copper-64 labelled],,,"C57BL/6 mice, stomach","vehicle, intratracheal instillation",tissue uptake,2.98 ± 0.7 %ID/g
Cc1nc2cccc(OCC(C)(C)C(=O)NC(C)C)c2c(N)c1C(=O)[O-].[Na+],Salmonella typhimurium,,TA1537,"0.80 mg per plate, with S9, preincubation",revertant colonies per plate,15 ± 1
O=C1CC[C@@]2(O)[C@H]3Cc4ccc(O)c5c4[C@@]2(CCN3CC2CCC2)[C@H]1O5,,,,phenolate protonated,log k amino protonation,9.02
CN1Cc2cc(Cl)ccc2-n2c(nnc2C2CCN(c3cccc([18F])n3)CC2)C1,,PET two-tissue compartment model,"rhesus monkey, cerebellum","intravenous, dose not given, 100 min scan, baseline scan",total volume of distribution,0.97 ± 0.39 mL/cm3
CN(C)c1nc(NCc2ccc3ccccc3c2)c(/N=N/c2ccc(Cl)cc2)c(N(C)C)n1,Plutella xylostella,leaf dipping,,"50 mg/L, 96 h",mortality,80 ± 10%
CN(C)c1ccc(-c2nc3ccccc3n2CCCOc2ccccc2)cc1,HEK-293T,cytotoxicity,,3 days,IC50,> 10 µM
O=C1CC[C@H]2[C@H]3Cc4ccc(O)c5c4[C@@]2(CCN3CCc2ccccc2)[C@H]1O5,,,,,log tautomerization constant,2
CCc1nnc(NS(=O)(=O)c2ccc(NC(=O)c3cccc4ccccc34)cc2)s1,CYP1A2,,,10 µM,inhibition,< 10%
O=C1NC2(CC2)COc2ncc(F)cc2[C@H]2COCCN2c2ccn3ncc1c3n2,,,"Sprague-Dawley rat, male, liver","oral, 2.5 mg/kg/day, 4 weeks, end of treatment",organ-to-brain weight ratio,637 ± 68.8%
Cc1ccc(NS(=O)(=O)c2c(C(=O)N3CCCCCC3)c(C)n(C)c2C)c(Cl)c1,HaCaT,,,"0.137 µM, 60 h",viability,96.6% and 98.7%
COc1ccc(-n2cc(C(=O)N3C[C@]4(OC(=O)c5ccccc5NC(C)=O)CC[C@H](OC)[C@@]56[C@@H]4C[C@@H]([C@@H]35)[C@@]3(O)C[C@H](OC)[C@H]4C[C@@H]6[C@]3(O)[C@H]4OC)nn2)cc1,,,"rat Sprague-Dawley, plasma","intravenous, 2 mg/kg",MRT(0-t),16.9 min
Oc1ccc2c3c1O[C@H]1[C@@H](O)CC[C@H]4[C@@H](C2)N(CC2CCC2)CC[C@@]341,,,,,log tautomerization constant,0.55
C[C@H]1[C@@H](OCc2cn(-c3cc4ccc(O)cc4oc3=O)nn2)O[C@@H]2O[C@@]3(C)CC[C@H]4[C@H](C)CC[C@@H]1[C@@]24OO3,Plasmodium berghei,flow cytometry,infected mouse blood,"3 µM, 1 h",uptake into uninfected RBC,3.8 ± 0.3 % stained cells
CN1CC[C@]23c4c5ccc(O)c4O[C@H]2[C@H](O)CC[C@@]3(O)[C@H]1C5,,,,,log k amino protonation,10.2
C[C@@H](c1ccc2nccn2c1)n1nnc2ncc(-c3cn[nH]c3)nc21,savolitinib,,"human, plasma","600 mg QD rifampicin, geometric LS mean, added: savolitinib 600 mg",Cmax,482 ng·mL
C[C@H]1[C@H](OC(=O)CCC(=O)OCc2nnn(-c3cc4ccc(O)cc4oc3=O)c2COC(=O)CCC(=O)O[C@@H]2O[C@@H]3O[C@@]4(C)CC[C@H]5[C@H](C)CC[C@@H]([C@H]2C)[C@@]35OO4)O[C@@H]2O[C@@]3(C)CC[C@H]4[C@H](C)CC[C@@H]1[C@@]24OO3,Plasmodium berghei,flow cytometry,infected mouse blood,"3 µM, 1 h",uptake into parasites,7 ± 3 % stained cells
O=C1CC[C@@]2(O)[C@H]3Cc4ccc(O)c5c4[C@@]2(CCN3CCc2ccccc2)[C@H]1O5,,,,phenolate site,log k protonation constant,8.03
CC[C@H](C)[C@H](NC(=O)[C@H](CCCCN)NC(=O)[C@H](CCCCN)NC(=O)[C@H](Cc1ccccc1)NC(=O)[C@H](Cc1ccccc1)NC(=O)[C@H](CCCCN)NC(=O)[C@H](CCCCN)NC(=O)[C@H](Cc1ccccc1)NC(=O)[C@H](CCCNC(=N)N)NC(=O)[C@@H](N)CCCCN)C(=O)N[C@@H](CCCCN)C(=O)N[C@@H](CCCCN)C(=O)N[C@@H](CO)C(=O)N[C@H](C(=O)N[C@@H](CCCCN)C(=O)N[C@@H](CCCCN)C(=O)N[C@@H](CCCNC(=N)N)C(=O)N[C@H](C(=O)N[C@@H](CCCCN)C(=O)N[C@@H](CCCCN)C(=O)N[C@@H](CC(C)C)C(=O)N[C@@H](Cc1ccccc1)C(=O)N[C@@H](CCCCN)C(=O)N[C@@H](CCCCN)C(=O)N1CCC[C@H]1C(=O)N[C@@H](CCCNC(=N)N)C(=O)N[C@H](C(=O)N[C@H](C(=O)N1CCC[C@H]1C(=O)N[C@H](C(=O)N[C@@H](CO)C(=O)N[C@H](C(=O)N1CCC[C@H]1C(=O)N[C@@H](Cc1ccccc1)C(=O)O)[C@@H](C)CC)[C@@H](C)CC)[C@@H](C)CC)C(C)C)C(C)C)C(C)C,Pseudomonas aeruginosa,,"P1, mouse serum","0 h, 37 °C",MIC,4 µg/mL

# Some of these lines once more:
SMILES,tested on,assay,system,conditions,endpoint,result
O=C1NC2(CC2)COc2ncc(F)cc2[C@H]2COCCN2c2ccn3ncc1c3n2,,,"Sprague-Dawley rat, male, liver","oral, 2.5 mg/kg/day, 4 weeks, end of treatment",organ-to-brain weight ratio,637 ± 68.8%
C[C@H]1[C@@H](OCc2cn(-c3cc4ccc(O)cc4oc3=O)nn2)O[C@@H]2O[C@@]3(C)CC[C@H]4[C@H](C)CC[C@@H]1[C@@]24OO3,Plasmodium berghei,flow cytometry,infected mouse blood,"3 µM, 1 h",uptake into uninfected RBC,3.8 ± 0.3 % stained cells
CC[C@H](C)[C@H](NC(=O)[C@H](CCCCN)NC(=O)[C@H](CCCCN)NC(=O)[C@H](Cc1ccccc1)NC(=O)[C@H](Cc1ccccc1)NC(=O)[C@H](CCCCN)NC(=O)[C@H](CCCCN)NC(=O)[C@H](Cc1ccccc1)NC(=O)[C@H](CCCNC(=N)N)NC(=O)[C@@H](N)CCCCN)C(=O)N[C@@H](CCCCN)C(=O)N[C@@H](CCCCN)C(=O)N[C@@H](CO)C(=O)N[C@H](C(=O)N[C@@H](CCCCN)C(=O)N[C@@H](CCCCN)C(=O)N[C@@H](CCCNC(=N)N)C(=O)N[C@H](C(=O)N[C@@H](CCCCN)C(=O)N[C@@H](CCCCN)C(=O)N[C@@H](CC(C)C)C(=O)N[C@@H](Cc1ccccc1)C(=O)N[C@@H](CCCCN)C(=O)N[C@@H](CCCCN)C(=O)N1CCC[C@H]1C(=O)N[C@@H](CCCNC(=N)N)C(=O)N[C@H](C(=O)N[C@H](C(=O)N1CCC[C@H]1C(=O)N[C@H](C(=O)N[C@@H](CO)C(=O)N[C@H](C(=O)N1CCC[C@H]1C(=O)N[C@@H](Cc1ccccc1)C(=O)O)[C@@H](C)CC)[C@@H](C)CC)[C@@H](C)CC)C(C)C)C(C)C)C(C)C,Pseudomonas aeruginosa,,"P1, mouse serum","0 h, 37 °C",MIC,4 µg/mL
CC(=O)NCCCC[C@@H]1NC(=O)[C@H](Cc2c[nH]c3c(C)cccc23)NC(=O)[C@H]([C@@H](C)O)NC(=O)[C@H](CC(N)=O)NC(=O)[C@@H](NC(C)=O)C(C)(C)SSC(C)(C)[C@@H](C(=O)N[C@@H](Cc2ccc(OCCN)cc2)C(=O)N[C@@H](Cc2ccc3ccccc3c2)C(=O)NC2(C(=O)N[C@@H](CCC(=O)O)C(=O)N[C@@H](CC(N)=O)C(=O)N[C@@H](Cc3cccnc3)C(=O)N(C)CC(N)=O)CCOCC2)NC1=O,"Multidrug and toxin extrusion protein 1 (SLC47A1, Homo sapiens, UniProt Q96FL8)",substrate,MDCK-II overexpressing transporter,"5 µM, 30 min, added: 100 µM pyrimethamine",uptake rate,0.164 ± 0.004 pmol/mg/min
